Measurements gathered from unrelated publications.
Several values in a cell are separate wells, animals, samples, runs or records.
Target: MAP/microtubule affinity-regulating kinase 3 (MARK3, Homo sapiens, UniProt P27448)

| SMILES | read-out | action | technique | concentration | relative to | quantity | value |
| --- | --- | --- | --- | --- | --- | --- | --- |
| Cc1cnc2nc1Nc1cccc(c1)COC/C=C/COCc1cc(ccc1OCCN1CCOCC1)N2 | binding | – | – | 0.1 µM | – | remaining binding | 81% |
| Nc1nc(Nc2ccccc2)sc1C(=O)c1ccccc1 | enzyme activity | inhibitor | – | 10 µM | – | remaining activity | 34% |
| Cc1cccc(-c2ccc3nc(NC(=O)C4CCCO4)nn3c2)c1 (centres unmarked) | enzyme activity | – | Dundee kinase panel | 10 µM | – | remaining activity | 86% |
| CN1CCN(Cc2ccc(-c3ccc(CO[C@H]4CCC[C@@H]4NC(=O)c4cc(-c5cnn(C)c5)cnc4N)cc3)cc2)CC1 | enzyme activity | inhibitor | – | 0.1 µM | – | inhibition | 4% |
| c1ccc2c(Nc3cc(C4CCC4)[nH]n3)nc(Nc3ccc4nc[nH]c4c3)nc2c1 | enzyme activity | inhibitor | – | 0.25 µM | – | remaining activity | 2% |
| C=CC(=O)Nc1cccc(-c2cnc3[nH]cc(C(=O)NC(C)(C)C)c3n2)c1 | kinase activity | – | – | 0.1 µM | – | inhibition | 51% and 44% |
| COc1ccc(NC(=O)Nc2ccc3c(c2)C(=O)N(C(C)CO)CC(C)C(CN(C)Cc2ccc4c(c2)OCO4)O3)cc1 (centres unmarked) | binding | – | competition with immobilised ligand | 10 µM | – | remaining binding | 100% |
| Cc1cccc(O[C@H]2CCC[C@@H](C(C)CNCc3ccncc3)C2)c1 (relative stereo) | enzyme activity | inhibitor | – | 10 µM | – | inhibition | 0% |
| CCN1CCN(Cc2ccc(C(=O)Nc3ccc(C)c(NCc4cnc5[nH]ccc5c4OC)c3)cc2C(F)(F)F)CC1 | binding | – | competition with immobilised ligand | 1 µM | – | remaining binding | 100% |
| Nc1ncc2c(n1)-c1c([nH]c3ccc(C4=CCOCC4)cc13)CCC2 | binding | – | competition with immobilised ligand | 1 µM | – | remaining binding | 100% |
| C[C@H]1CN(C(=O)c2cn(-c3ccnc(N)n3)c3cc(C#CC4(O)CCCCC4)ccc23)CCN1 | enzyme activity | inhibitor | FRET | 1 µM | – | inhibition | 75% |
| Cc1cccc(-c2ccc3nc(NC(=O)C4CCCCC4)nn3c2)c1 | enzyme activity | – | Dundee kinase panel | 10 µM | – | remaining activity | 91% |
| NC(=O)C[C@H]1CCc2sc3ncnc(O[C@H]4CC[C@H](N5CCOCC5)CC4)c3c21 | enzyme activity | inhibitor | – | 10 µM | – | inhibition | 1% |
| CC(C)=CC1OC(C)(C)C2C=C3C(=O)C(Cl)=CC(O)C3C3C(O)C4OC4C(=O)C132 (centres unmarked) | cell-free assay | – | competition with immobilised ligand | 10 µM | – | remaining binding | 100% |
| COc1c(Cl)cccc1Nc1c(-c2ccncc2C#C[C@@]2(C)CCCN2C(=O)/C=C/CN(C)C)[nH]c2c1C(=O)NCC2 | binding | – | competition with immobilised ligand | 3 µM | – | remaining binding | 93% |
| CNS(=O)(=O)Nc1nccc(Cc2c(C)c3ccc(Oc4ncccc4F)cc3oc2=O)c1F | binding | – | competition with immobilised ligand | 10 µM | – | remaining binding | 89% |
| Nc1ncc(-c2cc(-c3cnn(CC(F)(F)F)c3)ncc2F)nc1C(=O)NC1CNCC(F)C1 (centres unmarked) | enzyme activity | – | – | 1 µM | DMSO control | remaining activity | 99% |
| CNC(=O)C1CCN(c2cc(C)c(F)cc2NC(=O)c2ccc(-c3cc(O)ccc3C)c(C)c2)CC1 | binding | – | competition with immobilised ligand | 1 µM | – | remaining binding | 79% |
| COc1cc(Nc2nccc(-c3cnn4nc(OC)ccc34)n2)cc(C(F)(F)F)c1 | binding | – | competition with immobilised ligand | 1 µM | – | remaining binding | 86% |
| CN1CCN(Cc2ccc(NC(=O)c3cccc(C#Cc4cnc(N)c5ncccc45)c3)cc2C(F)(F)F)CC1 | cell-free assay | – | competition with immobilised ligand | 0.5 µM | – | remaining binding | 75% |
